Published values collected from several papers.
Each numbered part is a random draw from the data of one study; scales do not carry over between parts. Substitutions count along the parent as printed.

Block 1 — method: aptamer microarray, sandwich; form: DNA with 2'F-ANA; medium: in vitro; concentration: 200 nM; added: Cy3 exosite-II aptamer, 400 nM; reading: higher = stronger binding; strand: GGTTGGTGTGGTTGG
Target: Prothrombin, mature alpha-thrombin (F2, Homo sapiens, UniProt P00734)
Setting: whole 15-mer aptamer, many near background
Modification | mean fluorescence intensity
2'F-ANA at 3 5 6 7 10 11 15 | 50.3 a.u.
2'F-ANA at 1 2 3 5 7 8 10 11 12 15 | 53.3 a.u.
2'F-ANA at 2 3 5 9 11 12 15 | 177 a.u.
2'F-ANA at 2 3 4 6 9 10 | 228 a.u.
2'F-ANA at 1 5 6 8 13 | 52.9 a.u.
2'F-ANA at 4 8 10 12 15 | 118 a.u.
2'F-ANA at 1 2 3 4 8 9 10 12 13 14 | 53.6 a.u.
2'F-ANA at 1 4 5 7 9 10 12 | 45.9 a.u.
2'F-ANA at 1 8 14 | 59.6 a.u.
2'F-ANA at 1 2 5 6 7 11 13 14 15 | 51.9 a.u.
2'F-ANA at 1 2 3 7 9 11 12 14 15 | 82.2 a.u.
2'F-ANA at 2 3 5 7 8 9 11 | 112 a.u.
2'F-ANA at 3 4 5 6 7 11 12 15 | 133 a.u.
2'F-ANA at 1 2 4 5 8 9 11 | 55.7 a.u.
2'F-ANA at 2 3 5 6 9 10 12 15 | 119 a.u.
2'F-ANA at 1 2 3 5 6 9 10 11 12 | 57.9 a.u.
2'F-ANA at 1 2 4 5 6 9 10 | 51.9 a.u.
2'F-ANA at 3 5 6 9 10 11 12 13 | 62.6 a.u.
2'F-ANA at 1 2 3 6 7 8 10 15 | 85.1 a.u.
2'F-ANA at 1 2 3 4 5 7 9 10 11 12 14 | 48.5 a.u.
2'F-ANA at 1 2 3 6 9 11 14 15 | 65 a.u.
2'F-ANA at 3 4 5 7 13 | 67.5 a.u.
2'F-ANA at 1 4 5 7 8 11 12 | 83.3 a.u.
2'F-ANA at 2 6 13 14 | 149 a.u.
2'F-ANA at 7 10 11 14 15 | 103 a.u.

Block 2 — target: NFE2L3, bZIP domain (human); method: DHFR protein complementation; medium: yeast; reference: wild-type JUN-FOS pair; reading: higher = stronger binding
Setting: single substitutions, most at no-binding floor
Starting sequence: JUN, bZIP domain (human); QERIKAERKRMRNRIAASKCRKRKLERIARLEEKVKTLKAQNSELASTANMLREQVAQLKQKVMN; partner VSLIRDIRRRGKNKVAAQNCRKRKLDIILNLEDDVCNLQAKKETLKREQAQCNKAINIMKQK
Change | binding fitness [natural log]
V35H | -1.63
V35A | -1.39
A46L | -1.47
V35T | -1.55
L52V | -1.55
V35E | -1.48
T37L | -1.35
K36E | -1.27
R30A | -1.37
K39E | -1.39
R53I | -1.31
A46Y | -1.47
E33L | -1.47
E33M | -1.5
T48G | -1.56
Q41P | -1.51
Q41D | -1.28

Block 3 — method: universal PBM; form: double-stranded DNA, one strand shown; medium: in vitro; concentration: 600 nM; reading: higher = stronger binding
Target: Sal-like protein 4, full length isoform A (SALL4, Homo sapiens, UniProt Q9UJQ4, residues 1-1053)
UniProt Q9UJQ4, sequence (whole entry, looked up): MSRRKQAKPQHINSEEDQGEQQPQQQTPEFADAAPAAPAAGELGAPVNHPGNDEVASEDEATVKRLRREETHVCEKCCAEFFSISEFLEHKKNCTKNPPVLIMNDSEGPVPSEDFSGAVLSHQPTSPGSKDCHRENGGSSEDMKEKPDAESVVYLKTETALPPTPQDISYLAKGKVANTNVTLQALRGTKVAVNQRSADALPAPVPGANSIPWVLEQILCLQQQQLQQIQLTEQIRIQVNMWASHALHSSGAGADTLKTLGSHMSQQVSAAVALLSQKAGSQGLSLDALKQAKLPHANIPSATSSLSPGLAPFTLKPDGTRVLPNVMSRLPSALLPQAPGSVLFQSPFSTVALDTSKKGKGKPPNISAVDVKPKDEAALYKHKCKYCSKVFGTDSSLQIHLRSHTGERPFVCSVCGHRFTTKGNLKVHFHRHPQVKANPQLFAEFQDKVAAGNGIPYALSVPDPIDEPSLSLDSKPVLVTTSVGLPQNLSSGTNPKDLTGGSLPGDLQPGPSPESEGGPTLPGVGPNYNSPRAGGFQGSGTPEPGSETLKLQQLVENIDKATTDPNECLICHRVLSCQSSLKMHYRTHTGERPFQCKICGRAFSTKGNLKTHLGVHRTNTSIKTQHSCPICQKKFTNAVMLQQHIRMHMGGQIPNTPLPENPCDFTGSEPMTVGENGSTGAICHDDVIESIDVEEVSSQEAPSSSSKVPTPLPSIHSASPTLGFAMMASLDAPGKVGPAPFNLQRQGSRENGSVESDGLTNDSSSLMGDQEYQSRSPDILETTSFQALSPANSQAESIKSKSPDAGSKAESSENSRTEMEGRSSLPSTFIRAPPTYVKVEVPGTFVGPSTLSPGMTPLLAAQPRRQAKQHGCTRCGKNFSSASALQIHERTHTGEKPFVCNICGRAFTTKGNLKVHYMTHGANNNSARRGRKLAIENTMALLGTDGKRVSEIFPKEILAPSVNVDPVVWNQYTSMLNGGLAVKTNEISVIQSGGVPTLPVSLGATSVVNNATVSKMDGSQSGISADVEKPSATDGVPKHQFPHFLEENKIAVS
Setting: 8-mer, flanks averaged, mean of replicates
Strand | E-score
CGACATGA | -0.0186
ACTTCAAT | 0.236
CTATCTTA | 0.118
CCCGATAC | -0.14
CAAAGCGA | -0.029
GACGCCCA | -0.216
CGTTTTGA | 0.176
ACGCGGTA | -0.209
GGGGCGTA | -0.202
ATAGTCGG | -0.295
GCAAGCTA | -0.0722
GTAACGTA | 0.12
GTAAAGGA | 0.147
CTATTCCA | 0.151
AAGCGTTC | -0.0965
ACCGCACA | -0.224
CAAGTGTG | 0.17
AGCGGTTG | -0.252

Block 4 — method: RNA Bind-n-Seq; form: RNA; medium: in vitro; concentration: 1 µM; setting: whole 134-nt RNA, ends assumed; added: 150 mM KCl; reference: input library; reading: higher = stronger binding
Target: Ras GTPase-activating protein-binding protein 1, RRM domain (G3BP1, Homo sapiens, UniProt Q13283)
UniProt Q13283, sequence (whole entry, looked up): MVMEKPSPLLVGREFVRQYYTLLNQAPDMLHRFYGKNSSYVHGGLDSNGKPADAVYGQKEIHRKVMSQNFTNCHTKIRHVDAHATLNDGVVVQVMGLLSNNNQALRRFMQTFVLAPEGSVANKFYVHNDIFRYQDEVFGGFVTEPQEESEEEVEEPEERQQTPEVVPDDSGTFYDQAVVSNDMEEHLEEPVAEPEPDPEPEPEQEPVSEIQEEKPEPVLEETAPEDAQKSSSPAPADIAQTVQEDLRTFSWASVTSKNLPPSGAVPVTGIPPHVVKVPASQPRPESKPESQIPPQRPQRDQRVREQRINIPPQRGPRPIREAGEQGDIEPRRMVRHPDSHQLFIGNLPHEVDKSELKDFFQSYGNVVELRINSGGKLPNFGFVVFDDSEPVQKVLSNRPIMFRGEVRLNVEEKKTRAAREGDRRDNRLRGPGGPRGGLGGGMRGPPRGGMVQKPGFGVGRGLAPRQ
Shared flanks, not repeated: GGGAGUUCUACAGUCCGACGAUC … UGGAAUUCUCGGGUGUCAAGG
Strand | log2 enrichment
UGGCCCUGGUGGCAUGCGGGGAGGAAGAGGUGGCCUCAUGGAUCGUGGUGGUCCCGGUGGAAUGUUCAGAGGUGGCCGUGGUGGAUACAG | 1.11
UGCUAGGACUUGAUGGAUCACUAGUUUUUCUGGUAAGUAAAACUAAUUUUUUUUUUUUUUUUUUGAGACGGAAUCUCACUCUGUCACCCA | 0.563
AAUAACUGACGCUGCAUUUAAUUUUUUUGCCAGUUUAAAAUGUUUGUGUGUUUUUAUAGAUGAUUUUAACUGGUACAUAUUUUGAGUUAA | -0.43
UGGCCCUGGUGGCAGGCGGGGAGGAAGAGGUGGCCUCAUGGAUCGUGGUGGUCCCGGUGGAAUGUUCAGAGGUGGCCGUGGUGGAGACAG | 0.93
UAACUUUAGAGGAGGAUCUGAUGGAUAUGGCAGUGGACGUGGAUUUGGGGAUCGCUAUAAUGGGUAUGGAGGAGGACCUGGAGGUGGCAA | -0.205
AGUCCUGUGCUACACAUCGUAUGUACCGAAUCGGGAAAAGGGGAAAAGGGAAAAGGGGAAAGUAUUAUGUUACGCCGUUCGGAUCUGCAC | 0.449
AAAAUGCAGGUGGGCAUCUUUGGGAAGUGGGGCAAGGGGGGGAUAGGGAGGGGGGUAACACUUUGGGAACAGGUGGUCCCAGGUCGUUUC | -0.437
UGGCCCUGGUGGCAUGCGGGGAUGAAGAGGUGGCCUCAUGGAUCGUGGUGGUCCCGGUGGAAUGUUCAGAGGUGGCCGUGGUGGAGACAG | 0.727
AGUCCUGUGCUACACAUCGUAUGUACCGAAUCGGGAAAAAAAGGGUUUGGGUUUGGGAAAGUAUUAUGUUACGCCGUUCGGAUCUGCACU | 0.402
AGUCCUGUGCUACACAUCGUAUGUACCGAAUCGGAAAAAAAGGUUUUUGGAAAAAGGAAAGUAUUAUGUUACGCCGUUCGGAUCUGCACU | -0.211
UAACUUUAGAGGAGGAUCUGAUGGAUAUGGCAGUGGACGUGGAUUUGGGGAUGGCUAUAAUGGGUAUGGAGGAGGACCUGGCGGUGGCAA | -0.345
UCCUUCCUUUUUUUGUCUUAAACAUAGGACAUGGAUUUGAUUGACAUACUUUGGAGGCAAGAUAUAGAUCUUGGAGUAAGUCGAGAAGUA | -0.48
UGGGAGGUGGAUUUUGUUUAUUUUUCUAGCUCAUUUCCAGGGGUGGGAAUUUUUUUUUAAUAUGUGUCAUGAAUAAAGUUGUUUUUGAAA | 2.09
GUCCUGUGCUACACAUCGUAUGUACCGAAUCGGGUUUUUGGGUUUUUGGGUUUUUGGGAAAGUAUUAUGUUACGCCGUUCGGAUCUGCAC | 0.248

Block 5 — method: DHFR PCA, deep sequencing; medium: yeast; added: (+)-ABA 17 µM; reference: wild-type fitted maximum; reading: higher = stronger binding
Target: ABI1, truncated, D143A, DHFR fusion (Arabidopsis thaliana)
Setting: methotrexate growth selection, single substitutions
Starting sequence: PYL1, truncated, DHFR fusion (Arabidopsis thaliana); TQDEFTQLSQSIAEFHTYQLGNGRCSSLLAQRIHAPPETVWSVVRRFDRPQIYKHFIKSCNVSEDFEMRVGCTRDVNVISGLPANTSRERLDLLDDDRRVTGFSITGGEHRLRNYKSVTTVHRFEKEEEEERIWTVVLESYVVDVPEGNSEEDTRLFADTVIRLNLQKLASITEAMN
Change | relative binding score [%]
G108D | 5.35
S87C | 25.2
C25F | 23.7
Y141D | -11.5
D92Q | 18.4
S80C | 8.53
N22S | 86.3
G102T | -1.89
Q31W | 34.1
R123Y | 69.1
I133P | 96.5
E152A | 83.7
C60F | 6.47
T73K | 66.6
V136K | 2.58

Block 6 — target: CCNF, cyclin fold, Cln2 fusion (human); method: yeast growth competition, sequencing; medium: yeast; setting: strong parent motif; reference: not given; reading: higher = stronger binding
Starting sequence: KIF20B docking peptide (human); KRAKRKLYTSEIS
Change | normalised enrichment score
E11A | 1.3
I12A | 1.56
L7A | 0.79
T9A | 1.35
R5A | -0.213
R2A | 1.88

A few entries again (block 3):
Strand | E-score
ACGCGGTA | -0.209
GGGGCGTA | -0.202
ATAGTCGG | -0.295
GCAAGCTA | -0.0722
GTAACGTA | 0.12
GTAAAGGA | 0.147
CTATTCCA | 0.151
AAGCGTTC | -0.0965
ACCGCACA | -0.224
CAAGTGTG | 0.17
AGCGGTTG | -0.252
